Published values collected from several papers.

| Structure (SMILES) | organism | assay | system | conditions | MIC |
| --- | --- | --- | --- | --- | --- |
| CC1(C)C(NC(=O)C(=NOC2(C(=O)O)CCC2)c2csc(N)n2)C(=O)N1OS(=O)(=O)O (centres unmarked) | Citrobacter freundii | agar dilution | ATCC 43864, susceptible |  | 0.125 µg/mL |
| Cc1c(CN(C)C(=O)/C=C/c2cnc3c(c2)CC(N)C(=O)N3)oc2ccccc12 (centres unmarked) | Klebsiella pneumoniae | broth microdilution | AR-0542 |  | 16 µg/mL |
| COc1cc(C(=O)O)ccc1NC(=O)c1ccc(NC(=O)c2ccc(NC(=O)[C@H](Cc3c[nH]nn3)NC(=O)c3ccc(NC(=O)/C(C)=C/c4ccc(O)cc4)cc3)cc2)cc1O | Mycolicibacterium phlei |  | DSM 750 |  | 2 µg/mL |
| CC/C(O)=C1/C(=O)N2[C@@H](c3ccccc3)SC[C@]2(C(=O)OCc2ccccc2)C1=O | Streptomyces | bacterial growth, broth dilution | Mueller-Hinton broth | 24 h, 35 °C | 62.5 µg/mL |
| COC1C=COC2(C)Oc3c(C)c(O)c4c(c3C2=O)C2=NC3(CCN(CC(C)C)CC3)NC2=C(NC(=O)C(C)=CC=CC(C)C(O)C(C)C(O)C(C)C(OC(=O)Nc2cccnn2)C1C)C4=O (centres unmarked) | Mycobacteroides abscessus |  | ATCC 19977 | single-strain MIC | 90 µg/mL |
| COc1c(NC(=O)c2ccc(NC(=O)c3ccc(NC(=O)[C@H](CC#N)NC(=O)c4ccc(NC(=O)/C(C)=C/c5ccc(O)cc5)cc4)cc3)c(OC)c2O)ccc(C(=O)O)c1O | Mycolicibacterium phlei | microbial growth, broth dilution | DSM750 |  | 2 µg/mL |
| O=C1/C(=C(\O)C2CCCCC2)C(=O)[C@@]2(C(=O)OCc3ccccc3)CS[C@H](c3ccccc3)N12 | Streptomyces | bacterial growth, broth dilution | Mueller-Hinton broth | 24 h, 35 °C | 3.91 µg/mL |
| CC1(C)[C@H](NC(=O)/C(=N\OCC(=O)N2CCC[C@@H]2C(=O)O)c2nsc(N)n2)C(=O)N1OS(=O)(=O)O | Providencia rettgeri | agar dilution | ATCC 31052, susceptible |  | 0.06 µg/mL |
| CCOc1c(NC(=O)c2ccc(NC(=O)[C@H](Cc3c[nH]nn3)NC(=O)c3ccc(NC(=O)/C(C)=C/c4ccc(O)cc4)cc3)cc2)ccc(C(=O)Nc2ccc(C(=O)O)c(O)c2OC)c1O | Mycolicibacterium phlei |  | DSM 750 |  | 1 µg/mL |
| CC1(C)C(NC(=O)C(=NOC2(C(=O)O)CC2)c2csc(N)n2)C(=O)N1OS(=O)(=O)O (centres unmarked) | Providencia rettgeri | agar dilution | ATCC 31052, susceptible |  | ≤ 0.03 µg/mL |
| COc1cccc(OC)c1C(=O)N[C@@H]1C(=O)N2[C@@H]1SC(C)(C)[C@@H]2C(=O)O | Gram-positive bacteria |  | seven strains |  | 16 µM |
| CC(C)OC(=O)C12CSC(c3ccccc3)N1C(=O)C(=C(O)NC1CCCCC1)C2=O (centres unmarked) | Streptomyces | bacterial growth, broth dilution | Mueller-Hinton broth | 24 h, 35 °C | 15.6 µg/mL |
| CNC(C)C1CCC(N)C(OC2C(N)CC(N)C(OC3OCC(C)(O)C(NC)C3O)C2O)O1 (centres unmarked) | Salmonella enterica serovar Typhimurium |  | 14028, Mueller-Hinton broth | 18 to 20 h, 37 °C | 2 µM |
| COc1cc(C(=O)Nc2ccc(C(=O)O)c(O)c2)ccc1NC(=O)c1ccc(NC(=O)[C@H](Cc2c[nH]nn2)NC(=O)c2ccc(NC(=O)/C(C)=C/c3ccc(O)cc3)cc2)cc1 | Mycolicibacterium phlei |  | DSM 750 |  | 4 µg/mL |
| CN(Cc1ccc(C2(C(F)(F)F)CCC2)cc1)Cc1cccc2ccccc12 | Trichophyton mentagrophytes | microbial growth, broth dilution | ATCC18748 | 72 h | 4000 µg/mL |
| N=C(N)NCCC[C@@H]1NC(=O)[C@H](CCCNC(=N)N)NC(=O)[C@@H](C(c2ccccc2)c2ccccc2)NC(=O)[C@H](Cc2c[nH]c3ccccc23)NC(=O)[C@@H](C(c2ccccc2)c2ccccc2)NC(=O)[C@@H](CCCNC(=N)N)NC(=O)[C@@H](CCCNC(=N)N)NC1=O | Candida albicans |  | SC5314 |  | 16 µg/mL |
| COC(=O)C12CSC(c3ccccc3)N1C(=O)C(=C(O)NC13CC4CC(CC(C4)C1)C3)C2=O (centres unmarked) | Streptomyces | bacterial growth, broth dilution | Mueller-Hinton broth | 24 h, 35 °C | 7.81 µg/mL |
| CC1(C)[C@H](NC(=O)/C(=N\OCCN)c2csc(N)n2)C(=O)N1OS(=O)(=O)O | Providencia rettgeri | agar dilution | ATCC 31052, susceptible |  | ≤ 0.03 µg/mL |

| Structure (SMILES) | organism | assay | system | conditions | MIC |
| --- | --- | --- | --- | --- | --- |
| C=CCOC(=O)C12CSC(c3ccccc3)N1C(=O)C(=C(O)NC13CC4CC(CC(C4)C1)C3)C2=O (centres unmarked) | Streptomyces | bacterial growth, broth dilution | Mueller-Hinton broth | 24 h, 35 °C | 15.6 µg/mL |
| CC1C=CC=CC(C)C2C=CC3CC(C)(O)C(Cl)C(C)C3C2C(=O)C(Cl)(Cl)C(=O)C(C)C(=O)O1 (centres unmarked) | Staphylococcus aureus |  | MRSA clinical isolate | resistant OXA/CIP/CLI/ERY | 0.05 µg/mL |
| CC1(C)[C@H](NC(=O)/C(=N\OC2(C(=O)O)CCCC2)c2csc(N)n2)C(=O)N1OS(=O)(=O)O | Citrobacter freundii | agar dilution | ATCC 43864, susceptible |  | 0.25 µg/mL |
| COc1cc(C(=O)Nc2ccc(C(=O)O)c(O)c2OC)ccc1NC(=O)c1ccc(NC(=O)[C@H](Cc2c[nH]nn2)NC(=O)c2ccc(NC(=O)/C(C)=C/c3ccc(O)cc3)cc2)cc1 | Mycolicibacterium phlei |  | DSM 750 |  | 2 µg/mL |
| O=C1C(=C(O)NC2CCCCC2)C(=O)C2(C(=O)OC3CCCCC3)CSC(c3ccccc3)N12 (centres unmarked) | Streptomyces | bacterial growth, broth dilution | Mueller-Hinton broth | 24 h, 35 °C | 1.95 µg/mL |
| COc1c(NC(=O)c2ccc(NC(=O)[C@H](Cc3c[nH]nn3)NC(=O)c3ccc(NC(=O)/C(C)=C/c4ccc(O)cc4)cc3)cc2)ccc(C(=O)Nc2ccc(C(=O)O)c(O)c2)c1O | Mycolicibacterium phlei |  | DSM 750 |  | 1 µg/mL |
| C=CCOC(=O)[C@]12CS[C@H](c3ccccc3)N1C(=O)/C(=C(\O)C1CCCCC1)C2=O | Streptomyces | bacterial growth, broth dilution | Mueller-Hinton broth | 24 h, 35 °C | 3.91 µg/mL |
| C#CCNC(=O)C1(O/N=C(\C(=O)N[C@@H]2C(=O)N(OS(=O)(=O)O)C2(C)C)c2csc(N)n2)CC1 | Citrobacter freundii | agar dilution | ATCC 43864 susceptible |  | 0.5 µg/mL |
| C[C@@H]1C(=O)O[C@@H](C)/C=C/C=C\[C@@H](C)[C@@H]2C=C[C@@H]3C[C@@]4(C)O[C@H]4[C@@H](C)[C@H]3[C@@H]2C(=O)C(Cl)(Cl)C1=O | Staphylococcus aureus |  | MSSA clinical isolate | resistant: DAP | 0.025 µg/mL |
| N=C(N)NCCC[C@@H]1NC(=O)[C@H](CCCNC(=N)N)NC(=O)[C@@H](CCCNC(=N)N)NC(=O)[C@H](C(c2ccccc2)c2ccccc2)NC(=O)[C@H](C(c2ccccc2)c2ccccc2)NC(=O)[C@H](C(c2ccccc2)c2ccccc2)NC(=O)[C@H](CCCNC(=N)N)NC1=O | Candida albicans |  | SC5314 |  | 16 µg/mL |
| C/C(=C\c1ccc(O)cc1)C(=O)Nc1ccc(C(=O)N[C@@H](Cc2c[nH]nn2)C(=O)Nc2ccc(C(=O)Nc3ccc(C(=O)Nc4ccc(C(=O)O)c(O)c4)c(O)c3)cc2)cc1 | Mycolicibacterium phlei |  | DSM 750 |  | 2 µg/mL |
| CC1(C)[C@H](NC(=O)/C(=N\OCC(=O)N2CCC(C(=O)O)CC2)c2csc(N)n2)C(=O)N1OS(=O)(=O)O | Citrobacter freundii | agar dilution | ATCC 43864, susceptible |  | 2 µg/mL |
| COc1ccccc1NC(=O)OC1C(C)C(OC)C=COC2(C)Oc3c(C)c(O)c4c(c3C2=O)C2=NC3(CCN(CC(C)C)CC3)NC2=C(NC(=O)C(C)=CC=CC(C)C(O)C(C)C(O)C1C)C4=O (centres unmarked) | Mycobacteroides abscessus |  | ATCC 19977 | single-strain MIC | 140 µg/mL |
| CC(C)(O/N=C(\C(=O)N[C@@H]1C(=O)N(OS(=O)(=O)O)C1(C)C)c1nsc(N)n1)C(=O)O | Providencia rettgeri | agar dilution | ATCC 31052, susceptible |  | 0.5 µg/mL |
| CN[C@H](CC(C)C)C(=O)N[C@H]1C(=O)N[C@@H](CC(N)=O)C(=O)N[C@H]2C(=O)N[C@H]3C(=O)N[C@H](C(=O)N[C@H](C(=O)O)c4cc(O)cc(O)c4-c4cc3ccc4O)[C@H](O)c3ccc(c(Cl)c3)Oc3cc2cc(c3O[C@@H]2O[C@H](CO)[C@@H](O)[C@H](O)[C@H]2O[C@H]2C[C@](C)(N)[C@H](O)[C@H](C)O2)Oc2ccc(cc2Cl)[C@H]1O | Gram-positive bacteria |  | seven strains |  | 0.5 µM |
| O=C1C(=C(O)C=Cc2ccccc2)C(=O)C2(C(=O)OCc3ccccc3)CSC(c3ccc(Br)cn3)N12 (centres unmarked) | Streptomyces | bacterial growth, broth dilution | Mueller-Hinton broth | 24 h, 35 °C | 15.6 µg/mL |
| C=C(NC(=O)c1csc(-c2nc3c(cc2O)-c2nc(cs2)C(=O)NC(C(C)O)C(=O)NC(=C(C)OC)c2nc(cs2)C(=O)NC2c4nc(cs4)C(=O)NC(COC(=O)c4c5c6c(cccc6n4O)COC(=O)C(OC4CC(C)(O)C(N(C)C)C(C)O4)C2OC5)c2nc-3cs2)n1)C(N)=O (centres unmarked) | Staphylococcus aureus | microbial growth, agar dilution | ATCC43300 |  | 0.0156 µg/mL |

A few entries again:
| Structure (SMILES) | organism | assay | system | conditions | MIC |
| --- | --- | --- | --- | --- | --- |
| CC1(C)C(NC(=O)C(=NOC2(C(=O)O)CC2)c2csc(N)n2)C(=O)N1OS(=O)(=O)O (centres unmarked) | Providencia rettgeri | agar dilution | ATCC 31052, susceptible |  | ≤ 0.03 µg/mL |
| COc1cccc(OC)c1C(=O)N[C@@H]1C(=O)N2[C@@H]1SC(C)(C)[C@@H]2C(=O)O | Gram-positive bacteria |  | seven strains |  | 16 µM |
| CC(C)OC(=O)C12CSC(c3ccccc3)N1C(=O)C(=C(O)NC1CCCCC1)C2=O (centres unmarked) | Streptomyces | bacterial growth, broth dilution | Mueller-Hinton broth | 24 h, 35 °C | 15.6 µg/mL |
| CNC(C)C1CCC(N)C(OC2C(N)CC(N)C(OC3OCC(C)(O)C(NC)C3O)C2O)O1 (centres unmarked) | Salmonella enterica serovar Typhimurium |  | 14028, Mueller-Hinton broth | 18 to 20 h, 37 °C | 2 µM |
